Measured values gathered from unrelated publications.
Compare with care: the assays were run in different laboratories. ± marks the error that the study gave.
B1: Scn2a 1080-1203 (UniProt P04775); CK2-phosphorylated; sequence looked up; chain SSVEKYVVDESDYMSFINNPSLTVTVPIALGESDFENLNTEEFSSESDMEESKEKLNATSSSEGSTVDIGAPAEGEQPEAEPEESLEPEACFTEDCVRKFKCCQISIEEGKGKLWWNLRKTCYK
B2: Kcnt2 Q276E/Y279E (Rattus norvegicus, UniProt Q6UVM4); chain MVDLESEVPPLPPRYRFRDLLLGDQGWQNDDRVQVEFYMNENTFKERLKLFFIKNQRSSLRIRLFNFSLKLLSCLLYIIRVLLEKPSQGNDWSHIFWVNRSLPLWGLQVSVALISLFETILLGYLSYKGNIWEQILRVPFILEIINAVPFIISIFWPTLRNLFVPVFLNCWLAKHALENMINDLHRAIQRTQSAMFNQVLILISTLLCLIFTCICGIQHLERIGKKLNLFDSLYFCIVTFSTVGFGDVTPETWSSKLFVVAMICVALVVLPIQFEELAELWMERQKSGGNYSRHRAQTEKHVVLCVSSLKIDLLMDFLNEFYAHPRLQDYYVVILCPTEMDVQVRRVLQIPMWSQRVIYLQGSALKDQDLLRAKMDNAEACFILSSRCEVDRTSSDHQTILRAWAVKDFAPNCPLYVQILKPENKFHIKFADHVVCEEEFKYAMLALNCICPATSTLITLLVHTSRGQCVCLCCREGQQSPEQWQKTYGRCSGNEVYHIVLEESTFFAEYEGKSFTYASFHAHKKFGVCLVGVRREDNKNILLNPGPRYIMNASDICFYINITKEENSAFKNQDQQRKSNVSRSFYHGPSRLPVHSIIASMGTVAIDLQDTSCRAASGPTLALPSEGGKELRRPSIAPVLEVADTSSIQTCDLLSDQSEDETTPDEETSSNLEYAKGYPPYSPYIGSSPTFCHLLQEKVPFCCLRLDKSCQHNYYEDAKAYGFKNKLIIVAAETAGNGLYNFIVPLRAYYRPKKELNPIVLLLDNPPDMHFLDAICWFPMVYYMVGSIDNLDDLLRCGVTFAANMVVVDKESTMSAEEDYMADAKTIVNVQTLFRLFSSLSIITELTHPANMRFMQFRAKDCYSLALSKLEKKERERGSNLAFMFRLPFAAGRVFSISMLDTLLYQSFVKDYMISITRLLLGLDTIPGSGFLCSMKITEDDLWIRTYARLYQKLCSSTGDVPIGIYRTESQKLTTSESQISISVEEWEDTKDVKDPGHHRSIHRNSTSSDQSDHPLLRRKSMQWARRLSRKGPKHSGKTAEKITQQRLNLYRRSERQELAELVKNRMKHLGLSTVGYDEMNDHQSTLSYILINPSPDTRLELNDVVYLIRPDPLSYLPNSEPSRKNSICNAAVQDSREETQL
B3: RGS4 residues 52-end 52-205 del1-51 (UniProt P49799); sequence looked up; chain SQEEVKKWAESLENLINHECGLAAFKAFLKSEYSEENIDFWISCEEYKKIKSPSKLSPKAKKIYNEFISVQATKEVNLDSCTREETSRNMLEPTITCFDEAQKKIFNLMEKDSYRRFLKSRFYLDLTNPSSCGAEKQKGAKSSADCTSLVPQCA
B4: MIF4GD H44A (Homo sapiens, UniProt A9UHW6); sequence looked up; chain MGEPSREEYKIQSFDAETQQLLKTALKDPGAVDLEKVANVIVDASLQDCVFSKEAGRMCYAIIQAESKQAGQSVFRRGLLNRLQQEYQAREQLRARSLQGWVCYVTFICNIFDYLRVNNMPMMALVNPVYDCLFRLAQPDSLSKEEEVDCLVLQLHRVGEQLEKMNGQRMDELFVLIRDGFLLPTGLSSLAQLLLLEIIEFRAAGWKTTPAAHKYYYSEVSD
B5: BicD F684I (Drosophila melanogaster, UniProt P16568); chain MSSASNNGPSADQSVQDLQMEVERLTRELDQVSSASAQSAQYGLSLLEEKSALQQKCEELETLYDNTRHELDITQEALTKFQTSQKVTNKTGIEQEDALLNESAARETSLNLQIFDLENELKQLRHELERVRNERDRMLQENSDFGRDKSDSEADRLRLKSELKDLKFRETRMLSEYSELEEENISLQKQVSSLRSSQVEFEGAKHEIRRLTEEVELLNQQVDELANLKKIAEKQMEEALETLQGEREAKYALKKELDGHLNRESMYHISNLAYSIRSNMEDNASNNSDGEEENLALKRLEADLSTELKSPDGTKCDLFSEIHLNELKKLEKQLESMESEKTHLTANLREAQTSLDKSQNELQNFMSRLALLAAHVDALVQLKKQIDVKEQGKEGGQKKDELEQQLRALISQYANWFTLSAKEIDGLKTDIAELQKGLNYTDATTTLRNEVTNLKNKLLATEQKSLDLQSDVQTLTHISQNAGQSLGSARSTLVALSDDLAQLYHLVCTVNGETPTRVLLDHKTDDMSFENDSLTAIQSQFKSDVFIAKPQIVEDLQGLADSVEIKKYVDTVSDQIKYLKTAVEHTIDMNKHKIRSEGGDALEKVNTEEMEELQEQIVKLKSLLSVKREQIGTLRNVLKSNKQTAEVALTNLKSKYENEKIIVSDTMSKLRNELRLLKEDAATISSLRAMFAARCEEYVTQVDDLNRQLEAAEEEKKTLNQLLRLAVQQKLALTQRLEEMEMDREMRHVRRPMPAQRGTSGKSSFSTRPSSRNPASSNANPF
B6: dinB (Escherichia coli, UniProt Q47155); sequence looked up; chain MRKIIHVDMDCFFAAVEMRDNPALRDIPIAIGGSRERRGVISTANYPARKFGVRSAMPTGMALKLCPHLTLLPGRFDAYKEASNHIREIFSRYTSRIEPLSLDEAYLDVTDSVHCHGSATLIAQEIRQTIFNELQLTASAGVAPVKFLAKIASDMNKPNGQFVITPAEVPAFLQTLPLAKIPGVGKVSAAKLEAMGLRTCGDVQKCDLVMLLKRFGKFGRILWERSQGIDERDVNSERLRKSVGVERTMAEDIHHWSECEAIIERLYPELERRLAKVKPDLLIARQGVKLKFDDFQQTTQEHVWPRLNKADLIATARKTWDERRGGRGVRLVGLHVTLLDPQMERQLVLGL
B7: bHLH39 (Arabidopsis thaliana, UniProt Q9M1K0); sequence looked up; chain MCALVPPLFPNFGWPSTGEYDSYYLAGDILNNGGFLDFPVPEETYGAVTAVTQHQNSFGVSVSSEGNEIDNNPVVVKKLNHNASERDRRRKINSLFSSLRSCLPASGQSKKLSIPATVSRSLKYIPELQEQVKKLIKKKEELLVQISGQRNTECYVKQPPKAVANYISTVSATRLGDNEVMVQISSSKIHNFSISNVLSGLEEDRFVLVDMSSSRSQGERLFYTLHLQVEKIENYKLNCEELSQRMLYLYEECGNSYI
B8: Calhm3 (Mus musculus, UniProt J3QMI4); chain MDRFRMLFQHLQSSSESVMNGICLLLAAVTVKIYSSLDFNCPCLERYNALYGLGLLLTPPLALFLCGLLVNRQSVLMVEEWRRPAGHRRKDLGIIRYMCSSVLQRALAAPLVWILLALLDGKCFVCAFSNSVDPEKFLDFANMTPRQVQLFLAKVPCKEDELVKNSPARKAVSRYLRCLSQAIGWSITLLVIVVAFLARCLRPCFDQTVFLQRRYWSNYMDLEQKLFDETCCEHARDFAHRCVLHFFANMQSELRALGLRRDPAGGIPESQESSEPPELREDRDSGNGKAHLRAISSREQVDQLLSTWYSSKPPLDLAASPRRWGPGLNHRAPIAAPGTKLCHQLNV
B9: YAH1 (Saccharomyces cerevisiae, UniProt Q12184); chain IAAHLLRTSPSLLTRTTTTTRFLPFSTSSFLNHGHLKKPKPGEELKITFILKDGSQKTYEVCEGETILDIAQGHNLDMEGACGGSCACSTCHVIVDPDYYDALPEPEDDENDMLDLAYGLTETSRLGCQIKMSKDIDGIRVALPQMTRNVNNNDFS
Chain of UniProt D3Z291 (whole entry, looked up): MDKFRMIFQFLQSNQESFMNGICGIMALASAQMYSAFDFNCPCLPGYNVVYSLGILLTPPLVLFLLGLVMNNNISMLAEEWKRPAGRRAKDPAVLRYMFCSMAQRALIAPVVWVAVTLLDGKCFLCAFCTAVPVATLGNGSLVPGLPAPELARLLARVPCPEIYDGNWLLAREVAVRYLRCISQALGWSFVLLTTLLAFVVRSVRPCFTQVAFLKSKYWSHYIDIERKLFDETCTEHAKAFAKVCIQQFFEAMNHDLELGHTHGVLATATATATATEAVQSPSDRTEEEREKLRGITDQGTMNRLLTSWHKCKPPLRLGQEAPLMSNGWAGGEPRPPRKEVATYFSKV
Chain of UniProt P61981 (whole entry, looked up): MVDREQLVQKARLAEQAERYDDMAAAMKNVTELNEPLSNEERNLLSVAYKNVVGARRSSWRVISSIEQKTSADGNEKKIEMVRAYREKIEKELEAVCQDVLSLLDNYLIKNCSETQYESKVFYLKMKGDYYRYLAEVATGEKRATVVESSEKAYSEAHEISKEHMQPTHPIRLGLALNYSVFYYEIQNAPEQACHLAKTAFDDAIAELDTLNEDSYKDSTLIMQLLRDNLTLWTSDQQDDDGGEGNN
Chain of UniProt P09038 (whole entry, looked up): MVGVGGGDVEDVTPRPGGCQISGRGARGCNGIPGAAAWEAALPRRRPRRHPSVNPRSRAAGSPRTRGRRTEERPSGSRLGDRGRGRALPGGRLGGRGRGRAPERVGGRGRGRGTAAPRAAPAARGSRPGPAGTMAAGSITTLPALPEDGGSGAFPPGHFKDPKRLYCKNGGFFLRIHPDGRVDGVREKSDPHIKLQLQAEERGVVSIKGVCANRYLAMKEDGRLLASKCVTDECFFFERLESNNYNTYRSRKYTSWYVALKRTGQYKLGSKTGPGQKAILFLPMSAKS
Chain of UniProt Q01196 (whole entry, looked up): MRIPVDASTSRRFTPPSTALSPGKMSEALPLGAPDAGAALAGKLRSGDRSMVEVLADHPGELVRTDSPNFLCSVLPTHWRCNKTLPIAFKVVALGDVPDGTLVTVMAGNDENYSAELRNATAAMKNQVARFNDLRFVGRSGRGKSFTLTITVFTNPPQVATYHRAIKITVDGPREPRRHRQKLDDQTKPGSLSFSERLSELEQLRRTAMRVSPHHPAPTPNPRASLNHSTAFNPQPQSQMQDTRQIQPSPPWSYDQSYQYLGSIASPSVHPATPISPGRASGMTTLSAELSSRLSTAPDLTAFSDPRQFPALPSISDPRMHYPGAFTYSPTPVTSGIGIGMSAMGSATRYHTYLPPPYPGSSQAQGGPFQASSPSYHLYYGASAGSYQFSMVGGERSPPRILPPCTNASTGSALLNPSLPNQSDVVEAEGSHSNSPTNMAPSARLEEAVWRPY
Chain of UniProt Q61851 (whole entry, looked up): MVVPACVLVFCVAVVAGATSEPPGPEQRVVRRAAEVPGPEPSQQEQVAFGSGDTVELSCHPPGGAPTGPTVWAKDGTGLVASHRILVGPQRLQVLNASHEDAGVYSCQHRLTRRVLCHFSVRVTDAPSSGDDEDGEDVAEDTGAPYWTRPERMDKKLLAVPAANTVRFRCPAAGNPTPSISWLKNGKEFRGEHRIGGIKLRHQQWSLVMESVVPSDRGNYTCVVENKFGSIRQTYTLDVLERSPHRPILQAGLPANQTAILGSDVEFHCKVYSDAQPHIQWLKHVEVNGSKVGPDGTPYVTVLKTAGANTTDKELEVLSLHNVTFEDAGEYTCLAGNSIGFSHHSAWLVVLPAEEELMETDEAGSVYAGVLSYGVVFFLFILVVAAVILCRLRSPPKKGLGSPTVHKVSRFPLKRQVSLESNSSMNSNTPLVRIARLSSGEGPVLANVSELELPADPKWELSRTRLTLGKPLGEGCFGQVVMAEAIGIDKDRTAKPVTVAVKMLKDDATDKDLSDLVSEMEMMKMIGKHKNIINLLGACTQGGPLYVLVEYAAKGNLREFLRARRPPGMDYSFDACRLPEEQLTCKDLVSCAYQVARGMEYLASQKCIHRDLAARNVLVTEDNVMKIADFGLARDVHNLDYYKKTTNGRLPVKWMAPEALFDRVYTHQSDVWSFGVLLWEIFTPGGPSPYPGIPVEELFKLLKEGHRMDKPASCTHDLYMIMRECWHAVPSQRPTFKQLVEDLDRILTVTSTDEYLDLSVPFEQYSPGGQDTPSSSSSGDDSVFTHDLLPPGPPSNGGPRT
Chain of UniProt P00742 (whole entry, looked up): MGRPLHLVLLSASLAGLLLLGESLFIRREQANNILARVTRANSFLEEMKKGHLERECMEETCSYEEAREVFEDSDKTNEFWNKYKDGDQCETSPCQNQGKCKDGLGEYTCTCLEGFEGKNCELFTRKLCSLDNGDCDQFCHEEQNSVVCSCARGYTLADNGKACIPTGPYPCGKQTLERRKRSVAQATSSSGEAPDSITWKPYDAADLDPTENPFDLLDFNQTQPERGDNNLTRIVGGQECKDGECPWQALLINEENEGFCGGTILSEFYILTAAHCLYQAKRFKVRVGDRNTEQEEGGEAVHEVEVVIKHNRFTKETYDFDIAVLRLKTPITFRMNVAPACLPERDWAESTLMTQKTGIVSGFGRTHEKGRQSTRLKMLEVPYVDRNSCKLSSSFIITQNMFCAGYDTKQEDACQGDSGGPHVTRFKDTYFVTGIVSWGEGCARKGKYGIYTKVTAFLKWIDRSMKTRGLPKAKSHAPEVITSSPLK
Chain of UniProt P59215 (whole entry, looked up): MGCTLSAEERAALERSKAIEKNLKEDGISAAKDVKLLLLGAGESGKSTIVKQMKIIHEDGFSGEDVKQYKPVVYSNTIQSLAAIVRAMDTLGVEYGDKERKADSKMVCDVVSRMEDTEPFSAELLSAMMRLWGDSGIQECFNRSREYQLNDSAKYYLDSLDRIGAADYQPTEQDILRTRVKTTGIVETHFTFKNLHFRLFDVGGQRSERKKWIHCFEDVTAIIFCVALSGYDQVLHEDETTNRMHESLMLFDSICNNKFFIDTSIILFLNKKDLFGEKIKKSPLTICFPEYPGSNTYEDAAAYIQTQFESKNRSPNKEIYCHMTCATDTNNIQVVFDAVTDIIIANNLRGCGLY
Chain of UniProt Q99828 (whole entry, looked up): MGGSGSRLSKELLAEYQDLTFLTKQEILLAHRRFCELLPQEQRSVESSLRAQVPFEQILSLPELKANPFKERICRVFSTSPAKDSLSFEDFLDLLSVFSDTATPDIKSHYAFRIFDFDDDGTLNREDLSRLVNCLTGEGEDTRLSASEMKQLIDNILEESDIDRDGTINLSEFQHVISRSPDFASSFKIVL
Chain of UniProt Q14493 (whole entry, looked up): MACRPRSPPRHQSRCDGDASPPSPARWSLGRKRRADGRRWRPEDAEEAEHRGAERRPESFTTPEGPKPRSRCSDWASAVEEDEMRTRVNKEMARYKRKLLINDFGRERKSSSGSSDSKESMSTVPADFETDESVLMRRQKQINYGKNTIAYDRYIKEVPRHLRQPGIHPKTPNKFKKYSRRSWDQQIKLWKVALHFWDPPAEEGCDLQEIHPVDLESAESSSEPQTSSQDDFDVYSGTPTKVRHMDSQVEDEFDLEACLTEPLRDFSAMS
Chain of UniProt P32927 (whole entry, looked up): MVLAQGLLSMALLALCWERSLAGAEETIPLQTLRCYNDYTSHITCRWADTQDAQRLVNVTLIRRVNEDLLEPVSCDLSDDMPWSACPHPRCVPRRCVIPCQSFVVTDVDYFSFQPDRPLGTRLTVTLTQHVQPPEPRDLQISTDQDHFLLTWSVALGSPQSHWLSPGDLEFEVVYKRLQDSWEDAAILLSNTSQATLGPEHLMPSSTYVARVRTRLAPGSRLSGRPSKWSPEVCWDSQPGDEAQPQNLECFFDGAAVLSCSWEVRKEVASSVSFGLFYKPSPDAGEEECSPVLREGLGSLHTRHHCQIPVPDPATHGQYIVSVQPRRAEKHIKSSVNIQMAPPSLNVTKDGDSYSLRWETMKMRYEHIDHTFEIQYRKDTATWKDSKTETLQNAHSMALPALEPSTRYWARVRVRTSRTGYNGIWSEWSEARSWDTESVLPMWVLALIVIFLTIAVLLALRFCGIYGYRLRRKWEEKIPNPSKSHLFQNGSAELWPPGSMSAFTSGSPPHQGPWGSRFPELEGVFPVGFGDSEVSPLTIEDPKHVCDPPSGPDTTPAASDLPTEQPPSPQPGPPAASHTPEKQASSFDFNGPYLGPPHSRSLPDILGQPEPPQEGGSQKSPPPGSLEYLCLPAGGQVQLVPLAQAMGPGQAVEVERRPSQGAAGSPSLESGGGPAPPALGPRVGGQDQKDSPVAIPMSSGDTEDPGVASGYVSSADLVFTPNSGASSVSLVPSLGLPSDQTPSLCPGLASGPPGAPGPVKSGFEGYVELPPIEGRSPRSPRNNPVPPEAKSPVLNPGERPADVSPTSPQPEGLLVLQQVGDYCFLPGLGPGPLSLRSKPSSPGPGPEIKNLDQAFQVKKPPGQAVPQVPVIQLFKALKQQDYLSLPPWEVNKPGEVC
Chain of UniProt P23242 (whole entry, looked up): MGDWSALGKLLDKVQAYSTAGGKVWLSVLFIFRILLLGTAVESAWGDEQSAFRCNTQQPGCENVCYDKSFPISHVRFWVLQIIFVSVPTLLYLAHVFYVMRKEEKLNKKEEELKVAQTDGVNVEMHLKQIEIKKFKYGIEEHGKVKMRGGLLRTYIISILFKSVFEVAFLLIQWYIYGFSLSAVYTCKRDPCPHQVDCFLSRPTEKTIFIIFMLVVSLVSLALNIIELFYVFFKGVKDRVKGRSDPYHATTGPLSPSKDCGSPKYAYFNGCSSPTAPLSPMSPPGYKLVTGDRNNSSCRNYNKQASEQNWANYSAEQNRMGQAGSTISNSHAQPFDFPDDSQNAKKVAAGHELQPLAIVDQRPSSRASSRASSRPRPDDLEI

PPP1CA (Homo sapiens, UniProt P62136) — relative PP1 amount (KCNT1 (Rattus norvegicus, UniProt Q9Z258-1); co-IP; HEK293T, lysate; in cells; reference: Slack alone, higher = more PP1): 48%
LHST (CENPU residues 75-78, macrocycle 22-ring, imidazolium, pThr, C-amide; macrocycle 22-ring, imidazolium, pThr, C-amide) — IC50 (PLK1 (Homo sapiens, UniProt P53350); competition with ligand, ELISA; peptide, lysate): 240 nM
B1 (Scn2a 1080-1203) — koff (Ank3 1-981 (Rattus norvegicus, UniProt O70511); SPR; pH 7.4, 25 °C, NaCl 150 mM): 0.0021 s⁻¹
TIMP2 N-terminal domain S4P/V6G/I35V/S68N/V71I/T99N — Ki (MMP9 catalytic domain, no fibronectin 107-215 (Homo sapiens, UniProt P14780); fluorogenic substrate cleavage, inhibitor, enzyme inhibition assay; apparent): 0.5 nM
B2 (Kcnt2 Q276E/Y279E) — unitary conductance (Kcnt1 (Rattus norvegicus, UniProt Q9Z258-1); patch clamp; Xenopus oocytes): 324 pS
Cltc (Mus musculus, UniProt Q68FD5) — co-precipitated clathrin heavy chain (Gja1, pS262; pS279/282; pS368 (Mus musculus, UniProt P23242); co-IP; mES cells, lysate; 30 min, 4 °C, added: EGF 100 ng/mL; reference: untreated colonies, higher = more co-precipitation): 5.9 fold
YAEGTFISDYSIAMDKIRQQDFVNWLLAQRGKKSDWKHNITQ (Gip mature (Mus musculus, UniProt P48756)) — Ki (Gipr (Rattus norvegicus, UniProt P43219); radioligand binding): 1.2 nM
SERPINC1 R45E/R46E/K114E/R129E (Homo sapiens) — k2 (coagulation factor Xa (UniProt P00742); steady-state kinetics; room temperature, added: heparin): 6100 M⁻¹ s⁻¹
B3 — Kd (Gnao1, AlexaFluor 532 label (Rattus norvegicus, UniProt P59215); flow cytometry; pH 8.0, added: GDP-AlF4-): 91 nM
slmb (Drosophila) — ubiquitination (plk4 S293A (Drosophila melanogaster, UniProt O97143); densitometry of anti-FLAG blot; reference: WT-Plk4, higher = more ubiquitination): 10 fold
B4 (MIF4GD H44A) — koff (SLBP, phosphorylated, multiple sites (Homo sapiens, UniProt Q14493); SPR; pH 7.4, 25 °C, NaCl 150 mM): 0.00252 s⁻¹
CBFB/MYH11 fusion (Homo sapiens) — RUNX1 occupancy (RUNX1 (Homo sapiens, UniProt Q01196); ChIP; ME-1; 6 hours h, CSF1R promoter, added: AI-10-49 1 µM; reference: DMSO, higher = more occupancy): 2.2 fold
H-EDGGSFWYGAMKALYG-NH2 (designed peptide; C-terminal amide) — IC50 (CIB1 (Homo sapiens, UniProt Q99828); competition with peptide, competitor, TR-FRET; peptide): 46 ± 13 nM
B5 (BicD F684I) — speed (DYNC1H1/DYNC1I2/DYNC1LI2/DYNLT1/DYNLRB1/DYNLL1 (Homo sapiens); single-molecule TIRF): 0.42 µm/s
RCVRLHESCLGQQVPCCDPCATCYCRFFNAFCYCRKLGTAMNPCSRT (AGRP 86-132 (Homo sapiens, UniProt O00253); sequence looked up) — inverse agonist EC50 (MC4R (Homo sapiens, UniProt P32245); cAMP, inverse agonist, AlphaScreen; HEK293; apparent): 2.4 nM
FGF2 (Homo sapiens, UniProt P09038) — cell proliferation (FGFR3 isoform IIIc (unknown, UniProt Q61851); cell proliferation, MTT; BaF3-FGFR3c; 20 nM, 48 h, added: unmodified decamer 4.9 µg/mL; reference: FGF 1 with heparin, higher = more proliferation): 4%
CALM3 (Homo sapiens, UniProt P0DP25) — fast recovery time constant (SCN5A peptide truncated IG peptide (Homo sapiens, UniProt Q14524); whole-cell patch clamp; tsA201; added: Ca2+): 5.8 ms
B6 (dinB) — koff (dnaN 1-366 148-152 to poly-Ala (Escherichia coli, UniProt P0A988); SPR; pH 7.4, NaCl 150 mM): 0.00304 s⁻¹
SRI C-terminal Ca-binding domain — NCX activity (SLC8A1 (Oryctolagus cuniculus); Ni2+-sensitive current; rabbit cardiomyocytes; 3 µM, increase; reference: control, higher = greater NCX activity): 120%
B7 (bHLH39) — reporter activation (FIT Y238F (Arabidopsis thaliana, UniProt Q0V7X4); SEAP reporter; CHO; reference: wild-type FIT, higher = more reporter activity): 20%
B8 (Calhm3) — activation time constant (Calhm1 (Mus musculus, UniProt D3Z291); voltage-gated currents; Xenopus oocytes; higher = slower activation): 100 ms
YWHAG (Homo sapiens, UniProt P61981) — apparent relative IC50 (USP8 fragment, pS718 (Homo sapiens); DUB activity, inhibitor; 5 nM p-USP8, partial inhibition, added: Ub-AMC 1 µM): 31.1 nM
B9 (YAH1) — lipoylation (LIAS (Homo sapiens, UniProt O43766); HPLC-MS; added: NADPH; reference: FDX2, higher = more lipoylation): 3 fold over FDX2
CSF2 residues 3-end (Homo sapiens) — lower KD of high-affinity site (CSF2RB (Homo sapiens, UniProt P32927); radioligand binding; TF-1; reference: full-length GM-CSF, higher = tighter binding): 92%

For quick reference, copied from above:
PPP1CA (Homo sapiens, UniProt P62136) — relative PP1 amount (KCNT1 (Rattus norvegicus, UniProt Q9Z258-1); co-IP; HEK293T, lysate; in cells; reference: Slack alone, higher = more PP1): 48%
LHST (CENPU residues 75-78, macrocycle 22-ring, imidazolium, pThr, C-amide; macrocycle 22-ring, imidazolium, pThr, C-amide) — IC50 (PLK1 (Homo sapiens, UniProt P53350); competition with ligand, ELISA; peptide, lysate): 240 nM
